Experimental data pooled from the literature.
Compare with care: the assays were run in different laboratories. ± gives the spread as reported.

| SMILES | test | system | conditions | scale | quantity | value |
| --- | --- | --- | --- | --- | --- | --- |
| O=c1cc(-c2ccc(O)cc2)oc2c(-c3ccc(O)c(O)c3)c(O)cc(O)c12 | ABTS scavenging, absorbance | – | – | – | EC50 | 1050 µM |
| Sc1nnc(-c2cc(Cl)ccc2Cl)o1 | nitric oxide scavenging | – | – | – | IC50 | 101 ± 4.1 µM |
| N[C@@H](CCC(=O)O)C(=O)N1CCC[C@H]1C(=O)NCC(=O)NCC(=O)O | diketopiperazine formation, Arrhenius plot, ESI-MS | 1-propanol | 70, 80, 90 °C, 0.5% acetic acid | – | activation energy | 17 ± 3.59 kcal/mol |
| Cc1cc(O)c(C=O)c2c1C(=O)Oc1c(CO)c(O)c3c(c1O2)C(O)OC3=O (stereo not shown) | – | rat, male, streptozotocin-induced diabetes, testis | oral, 5 mg/kg, 9 weeks | – | relative organ weight | 0.63 ± 0.03 g |
| CCCC[C@H](NC(=O)[C@@H](NC(=O)[C@H](CC(=O)O)NC(=O)[C@H](CCC(N)=O)NC(=O)[C@H](CC(C)C)NC(=O)[C@H](CC(C)C)NC(=O)[C@H](CCCN)NC(=O)[C@H](CCCNC(=N)N)NC(=O)[C@H](C)NC(=O)[C@H](CO)NC(=O)[C@H](CC(C)C)NC(=O)[C@H](CCC(N)=O)NC(=O)[C@H](CC)NC(=O)[C@H](CC(C)C)NC(=O)[C@@H](NC(=O)[C@H](CCCN)NC(=O)[C@H](CCCNC(=N)N)NC(=O)[C@H](Cc1ccc(O)cc1)NC(=O)[C@H](CO)NC(=O)[C@H](CCC(N)=O)NC(=O)[C@@H](NC(=O)[C@H](Cc1ccccc1)NC(=O)[C@@H](NC(=O)[C@H](C)NC(=O)[C@H](CC(=O)O)NC(=O)[C@@H](C)NC(=O)CCc1ccc(O)cc1)[C@@H](C)CC)[C@@H](C)O)C(C)C)[C@@H](C)CC)C(=O)N[C@@H](CC(=O)O)C(=O)N[C@H](CCCNC(=N)N)C(=O)NC | GH release | rat, male, serum | subcutaneous, 3 µg/kg, 15 min | baseline: reference GHRH agonist JI-38 | relative potency | 0.93 |
| [2H]C([2H])([2H])C(c1cc2nnc(-c3cc(F)ccc3F)n2nc1OCc1ncnn1C)(C([2H])([2H])[2H])C([2H])([2H])[2H] | – | amygdala-kindled Wistar rats, cortex | oral, 6 mg/kg, 2 h before stimulation | baseline: baseline | afterdischarge duration change | -53% |
| CCCC[C@H](NC(=O)[C@@H](NC(=O)[C@H](CC(=O)O)NC(=O)[C@H](CCC(N)=O)NC(=O)[C@H](CC(C)C)NC(=O)[C@H](CC(C)C)NC(=O)[C@H](CCCN)NC(=O)[C@H](CCCNC(=N)N)NC(=O)[C@H](C)NC(=O)[C@H](CO)NC(=O)[C@H](CC(C)C)NC(=O)[C@H](CCC(N)=O)NC(=O)[C@H](CC)NC(=O)[C@H](CC(C)C)NC(=O)[C@@H](NC(=O)[C@H](CCCN)NC(=O)[C@H](CCCNC(=N)N)NC(=O)[C@H](Cc1ccc(O)cc1)NC(=O)[C@H](CO)NC(=O)[C@H](CCC(N)=O)NC(=O)[C@@H](NC(=O)[C@H](Cc1ccccc1)NC(=O)[C@@H](NC(=O)[C@H](C)NC(=O)[C@H](CC(=O)O)NC(=O)[C@H](C)NC(=O)[C@H](Cc1ccc(O)cc1)NC)[C@@H](C)CC)[C@@H](C)O)C(C)C)[C@@H](C)CC)C(=O)N[C@@H](CC(=O)O)C(=O)N[C@@H](CCCNC(=N)N)C(=O)NC | GH release | rat, male, serum | subcutaneous, 3 µg/kg, 15 min | baseline: reference GHRH agonist JI-38 | relative potency | 2.69 |
| CN1CCC[C@]1(C)/C=C/S(=O)(=O)NC(=O)Nc1c2c(cc3c1CCC3)CCC2 | IL-18 release | human, whole blood ex vivo | oral, 100 mg, 36 h after last dose, multiple ascending dose, added: LPS and ATP | – | inhibition | ~90% |
| COc1ccc(C2CC(c3ccc(C)cc3)=Nc3ccccc3S2)cc1OC (stereo not shown) | – | Wistar rat, STZ-induced diabetes, serum | 20 mg/kg, 28 days | – | total cholesterol | 133 mg/dL |
| C=C1C[C@@]23CC[C@H]4[C@@](C)(CCC[C@@]4(C)C(=O)O[C@@H]4O[C@H](CO)[C@@H](O)[C@H](O)[C@H]4O)[C@@H]2CC[C@]1(O[C@@H]1O[C@H](CO[C@H]2O[C@H](CO)[C@@H](O)[C@H](O)[C@H]2O)[C@@H](O)[C@H](O)[C@H]1O[C@@H]1O[C@H](CO)[C@@H](O)[C@H](O)[C@H]1O)C3 | – | C57BL/6N mouse, high-fat diet | drinking water, 0.2 g/L, 16 weeks | baseline: vehicle | body weight | no effect |

For quick reference, copied from above:
| SMILES | test | system | conditions | scale | quantity | value |
| --- | --- | --- | --- | --- | --- | --- |
| O=c1cc(-c2ccc(O)cc2)oc2c(-c3ccc(O)c(O)c3)c(O)cc(O)c12 | ABTS scavenging, absorbance | – | – | – | EC50 | 1050 µM |
